Measured values pooled from the literature.
Each numbered part is a random draw from the data of one study; scales do not carry over between parts. Substitutions count along the parent as printed.

Study 1 — technique: RNA Bind-n-Seq; molecule type: RNA; matrix: in vitro; concentration: not given; reference: input RNA pool; reading: higher = stronger binding
Target: RING finger protein unkempt homolog, zinc fingers 1-6, GST-SBP tag (UNK, Homo sapiens, UniProt Q9C0B0, residues 30-357)
Chain of UniProt Q9C0B0 (30-357, looked up): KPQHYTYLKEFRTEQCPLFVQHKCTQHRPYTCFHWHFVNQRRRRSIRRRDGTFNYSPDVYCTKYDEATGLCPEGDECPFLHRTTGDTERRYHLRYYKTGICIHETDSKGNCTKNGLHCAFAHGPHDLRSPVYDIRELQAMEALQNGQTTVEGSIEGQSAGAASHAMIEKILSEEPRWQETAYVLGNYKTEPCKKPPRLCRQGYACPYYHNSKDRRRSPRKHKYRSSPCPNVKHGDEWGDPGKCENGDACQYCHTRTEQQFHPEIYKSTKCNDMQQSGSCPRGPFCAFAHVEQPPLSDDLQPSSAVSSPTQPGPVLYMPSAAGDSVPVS
Setting: RNA with constant flanks, human-mouse chimeric sites, ends assumed
Constant ends, left off below: GGGAGUUCUACAGUCCGACGAUC … CAACAGAGGAUUGAGCAUCA
| Sequence | bound/input enrichment [ratio] |
| --- | --- |
| UCCUUGGACCCCAGUCAUAUAGGUGACCUGCAAAAAGCAGACACCAGUAGUCAAGGUGCUUUAGUGUUUCUCUCAAAGGACUACGAGAUAGAAAAUCAAAAUCCUCUGGCCUCUCCUACG | 1.41 |
| UUCAAAGAAAAGGGCAGUUCAUAAAUAUCAUAAGUAACUCUGGGGGAGGGAAAUUCUGUUCUUUUGUUUAAUUUUCCCCCAGAUAAAGCCAAAGUGUGUGUUGAAGAACUGAGAAAAAAU | 0.247 |
| CCCCAAUACCAUUUGCAGGUCUGGAACUGCACUCUCUUUUUUAAAAAACAUGUAUACAUUUUAGGGCUGUAGACUUAUUUUCCUGGUUUCUUUUCCAAUUGCUGACUUUUGAGCACAGAA | 2.24 |
| GGUGGGGUGGUCAUUGCCGUUUGAGCUGCUGAUUUUCAUGAGUCGCCUUCAAAACUCUCGUGUAGGGUUGACACUGUAAGGGGUGGGGGGAUCCAGCUUAUUCUUUUAUUUUCAAGUCCA | 0.532 |
| UGUGAACUGUCUCUUGAUUGGGGUCUACAAGAUGACUUUUCCUGGCACAUAUUCCAAAGCAAAGACUUUGUUGCCUGCUGCUUAUUGUCUAAUUUACAGGGAUAUUUAAUUUUGUAAGGU | 0.235 |
| CCCUCCCGGGCCACCCAACCCCUCCCGGCUCCCCGCCGAGAUCCAGGUUUCUUCUUAUUUCAUAGCCAAUAAGAAAAAUGUUCUACGCACAUUUUGUCCUCAGUAAACGAGGGCCUCUGG | 0.516 |
| UAAAUCCUGUGCCAGCACUUCGCUCAUAAAGUUUUAAAUUCUGGACCAAUAGUGUUUAUCUUUAGAAUAUUGUAUCCAAUACUUUGCCUAGUAUGUAACUCACUCUUACUGAUAAUAAAA | 20.1 |
| CUGUGACUGAUGGCAGCUACCUGAGUGGCAGCUGAAGCACUUUUCUUCUCCUUGCCUGAACCCCCCCCCACUGCCCCCCCAUCCCCCAGUGUCGGCUGAGAUGUUGCCUCUGCACGGUUC | 0.962 |

Study 2 — technique: aptamer microarray, sandwich; molecule type: DNA with 2'F-ANA; matrix: in vitro; concentration: 200 nM; added: Cy3 exosite-II aptamer, 400 nM; reading: higher = stronger binding; sequence: GGTTGGTGTGGTTGG
Target: Prothrombin, mature alpha-thrombin (F2, Homo sapiens, UniProt P00734)
Setting: whole 15-mer aptamer, many near background
| Modification | mean fluorescence intensity [a.u.] |
| --- | --- |
| 2'F-ANA at 2 6 8 10 13 14 | 82.7 |
| 2'F-ANA at 1 3 9 12 13 14 | 200 |
| 2'F-ANA at 2 5 8 10 12 | 51.6 |
| 2'F-ANA at 2 3 8 11 12 13 14 | 496 |
| 2'F-ANA at 3 4 5 6 7 9 11 13 14 | 48.3 |
| 2'F-ANA at 1 3 5 8 11 13 15 | 74.7 |
| 2'F-ANA at 2 4 6 8 9 10 11 12 13 14 15 | 84.1 |
| 2'F-ANA at 1 4 6 11 12 | 204 |
| 2'F-ANA at 1 6 7 8 9 11 13 15 | 132 |
| 2'F-ANA at 2 5 6 9 10 11 13 15 | 99.9 |
| 2'F-ANA at 1 2 3 6 7 8 12 14 15 | 97.1 |
| 2'F-ANA at 3 4 7 9 10 13 14 15 | 231 |
| 2'F-ANA at 3 4 5 6 7 9 10 13 14 | 47.4 |

Study 3 — target: CCND3, cyclin fold, Cln2 fusion (human); technique: yeast growth competition, sequencing; matrix: yeast; setting: weak parent motif; reference: not given; reading: higher = stronger binding
Starting sequence: DOT1L docking peptide (human); SEAKRRIVFTITT; partner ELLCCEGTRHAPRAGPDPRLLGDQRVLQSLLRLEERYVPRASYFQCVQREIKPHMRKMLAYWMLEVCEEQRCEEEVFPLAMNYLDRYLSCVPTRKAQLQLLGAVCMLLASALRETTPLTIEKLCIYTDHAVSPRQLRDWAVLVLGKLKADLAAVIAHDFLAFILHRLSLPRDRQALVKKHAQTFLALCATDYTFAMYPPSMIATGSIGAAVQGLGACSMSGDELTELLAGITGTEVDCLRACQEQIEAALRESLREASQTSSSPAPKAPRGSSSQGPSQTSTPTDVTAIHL
| Substitution | normalised enrichment score |
| --- | --- |
| SEAKRRIVFTATT [I11A] | -0.0507 |
| SEAKRRAVFTITT [I7A] | 0.154 |
| SEAKRRIVFTIAT [T12A] | 0.383 |
| SEAKRRIVFTITA [T13A] | 0.656 |
| SEAKRRIAFTITT [V8A] | 0.314 |
| SEAKRRIVATITT [F9A] | 0.164 |

Further values, each from its own experiment
| Substance | target | test | system | conditions | scale | endpoint | value |
| --- | --- | --- | --- | --- | --- | --- | --- |
| PhoQ, residues 284 288 289 292 302 303 TNSAEL | PhoP, residues 12 14 15 18 19 MHTVL (Escherichia coli, UniProt P23836) | Sort-seq, measured: YFP reporter | E. coli | PhoQ-PhoP variant library, added: 10 µM Mg2+ | reference: high Mg2+ state, higher = stronger signaling | fold induction | 20.7 |

Excerpt of the above (study 1):
| Sequence | bound/input enrichment [ratio] |
| --- | --- |
| CCCCAAUACCAUUUGCAGGUCUGGAACUGCACUCUCUUUUUUAAAAAACAUGUAUACAUUUUAGGGCUGUAGACUUAUUUUCCUGGUUUCUUUUCCAAUUGCUGACUUUUGAGCACAGAA | 2.24 |
| UUCAAAGAAAAGGGCAGUUCAUAAAUAUCAUAAGUAACUCUGGGGGAGGGAAAUUCUGUUCUUUUGUUUAAUUUUCCCCCAGAUAAAGCCAAAGUGUGUGUUGAAGAACUGAGAAAAAAU | 0.247 |
